Assay results collected from several papers.
± marks the error that the study gave.
TDP1: Tyrosyl-DNA phosphodiesterase 1 (TDP1, Homo sapiens, UniProt Q9NUW8)
Sequence of UniProt Q9NUW8 (whole entry, looked up): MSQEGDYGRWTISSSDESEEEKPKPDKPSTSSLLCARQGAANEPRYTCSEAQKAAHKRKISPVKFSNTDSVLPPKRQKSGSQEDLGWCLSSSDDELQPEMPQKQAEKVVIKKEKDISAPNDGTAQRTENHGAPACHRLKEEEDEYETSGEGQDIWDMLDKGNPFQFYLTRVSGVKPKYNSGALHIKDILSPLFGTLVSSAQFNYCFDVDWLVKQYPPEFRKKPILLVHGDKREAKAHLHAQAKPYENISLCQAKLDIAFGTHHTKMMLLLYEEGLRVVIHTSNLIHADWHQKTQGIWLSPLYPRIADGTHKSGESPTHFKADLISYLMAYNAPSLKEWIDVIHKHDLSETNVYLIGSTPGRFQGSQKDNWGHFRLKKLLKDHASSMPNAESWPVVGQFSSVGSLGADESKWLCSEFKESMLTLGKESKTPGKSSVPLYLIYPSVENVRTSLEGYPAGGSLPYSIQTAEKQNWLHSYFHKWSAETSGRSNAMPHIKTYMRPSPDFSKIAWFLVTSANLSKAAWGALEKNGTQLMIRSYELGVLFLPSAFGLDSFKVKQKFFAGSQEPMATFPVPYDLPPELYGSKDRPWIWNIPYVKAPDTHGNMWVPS

Compound	target	assay	system	setting	how to read	endpoint	result
COc1cc(N2CCCC2)ccc1C=NOCc1ccc2nc(-c3ccccc3)c(Nc3ccc(C(=O)O)cc3)n2c1	TDP1	enzyme activity, inhibitor	–	100 µM, unpurified compound	–	inhibition	35.6%
NCCOc1cc(NC(=O)c2cc(Cl)cc(C(=O)Nc3cc(OCCN)c4ccccc4n3)n2)nc2ccccc12	c-kit2 G-quadruplex DNA	FRET melting	–	1 µM, pH 7.4, added: 60 mM potassium	–	ΔTm	14.4 ± 0.6 K
COc1cc(Nc2nc(C)cc(-c3cnn4nc(OC)ccc34)n2)cc(C(F)(F)F)c1	JAK1 JH1 catalytic domain, human	KINOMEscan binding	–	1000 nM	relative to: control	remaining binding	100%
Cc1cn(CC(=O)N(CC(=O)N[C@H]2COC[C@@H]2N(CC(=O)NCCOCCOCC(N)=O)C(=O)Cn2cnc3c(N)ncnc32)[C@H]2COC[C@@H]2NC(=O)CN(C(=O)Cn2cnc3c(N)ncnc32)[C@H]2COC[C@@H]2NC(=O)CN(C(=O)Cn2cnc3c(=O)[nH]c(N)nc32)[C@H]2COC[C@@H]2NC(=O)CN(C(=O)Cn2cc(C)c(=O)[nH]c2=O)[C@H]2COC[C@@H]2NC(=O)CN(C(=O)Cn2cnc3c(=O)[nH]c(N)nc32)[C@H]2COC[C@@H]2NC(=O)CN(C(=O)Cn2cc(C)c(=O)[nH]c2=O)[C@H]2COC[C@@H]2NC(=O)CN(C(=O)Cn2cnc3c(N)ncnc32)[C@H]2COC[C@@H]2NC(=O)CN(C(=O)Cn2cnc3c(=O)[nH]c(N)nc32)[C@H]2COC[C@@H]2N)c(=O)[nH]c1=O	mismatched RNA TC	duplex formation, UV melting	–	–	relative to: complementary RNA	ΔTm	-19.4 °C
COc1ccc2cc3[n+](cc2c1OCCCOC(=O)c1cscn1)CCc1cc2c(cc1-3)OCO2	PCSK9	–	–	concentration not given	–	inhibition	51.2%
C=CC(=O)Nc1cccc(Cn2ncc3cnc(Nc4cnn(CCOC)c4)nc32)c1	TIE1 human	binding, KINOMEscan	–	100 nM	lower = stronger binding	percent of control	21%
Nc1ncc(-c2cc(-c3cnn(CC(F)(F)F)c3)ncc2F)nc1C(=O)NC1CNCC(F)C1 (stereo not shown)	PHKG1	KINOMEscan	–	1 µM	relative to: DMSO control	remaining binding	82%
C=CC(=O)N1[C@@H](c2ccc3c(c2)OCO3)c2[nH]c3ccccc3c2C[C@H]1C(=O)N1CCN(C)CC1	human cyclin E1 wild type-3xFLAG:CDK2	co-IP with TMT proteomics, measured: ELP5	–	concentration not given, Q8TE02	relative to: wild type DMSO	relative co-enrichment	87%
COc1ccc(-c2ccc(C=NOCc3ccc4nc(-c5ccccc5)c(Nc5ccc(C(=O)O)cc5)n4c3)s2)cc1 (mixture of isomers)	TDP1	enzyme activity, inhibitor	–	100 µM, unpurified compound	–	inhibition	42.6%
c1ccc(-c2n[nH]cc2-c2ccnc3ccccc23)nc1	NPR1 (Candida albicans)	kinase binding, MIB/MS competition	Candida albicans lysate	1 µM	relative to: DMSO	log2 fold change	0.08

Excerpt of the above:
Compound	target	assay	system	setting	how to read	endpoint	result
c1ccc(-c2n[nH]cc2-c2ccnc3ccccc23)nc1	NPR1 (Candida albicans)	kinase binding, MIB/MS competition	Candida albicans lysate	1 µM	relative to: DMSO	log2 fold change	0.08
